Measured values gathered from unrelated publications.
Each numbered part is a random draw from the data of one study; scales do not carry over between parts.

Series 1
Target: Centromere-binding protein 1, full length, His-tagged (CBF1, Saccharomyces cerevisiae, UniProt P17106, residues 1-351)
UniProt P17106, sequence (whole entry, looked up): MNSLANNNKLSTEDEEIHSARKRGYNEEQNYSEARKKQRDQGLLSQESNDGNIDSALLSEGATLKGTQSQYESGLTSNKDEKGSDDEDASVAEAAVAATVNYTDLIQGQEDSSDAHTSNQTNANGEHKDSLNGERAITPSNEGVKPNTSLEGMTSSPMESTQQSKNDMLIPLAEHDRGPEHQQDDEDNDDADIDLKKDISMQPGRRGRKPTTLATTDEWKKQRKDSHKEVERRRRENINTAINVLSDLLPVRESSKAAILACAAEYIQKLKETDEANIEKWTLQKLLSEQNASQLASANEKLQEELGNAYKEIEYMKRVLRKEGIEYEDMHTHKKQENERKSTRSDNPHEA
Method: competition protein-binding microarray
Molecule type: double-stranded DNA, one strand shown
Sample: in vitro
Tested at: 2 µM
Notes: whole 60-bp probe, lowest competitor level
With: Pho4 competitor, 0.05 µM
Reading: higher = stronger binding
All sequences stand within: … GTCTTGATTCGCTTGACGCTGCTG
Strand	fluorescence intensity
CGATGTGTTTACCATCACGGGAATCAGAAATATGTT	349 a.u.
CCGTCAGATAATATATCCCCGTATAGGTTTGGTGCC	77.9 a.u.
TGATGTGGTTTCTACAGCTGGGTATTCACAATAAAA	68.4 a.u.
ACATGTACCAAGTAACCTTTTCCAATAAAATTTCAA	92.7 a.u.
AACCAGTCCAAAAGGTACGTGCAATAAAAGAAGTTG	87.4 a.u.
CAGCAACTTAGTTTGCACGTGGCCGTCCTCTGTGTG	1420 a.u.
ATGTGTAAATCCGATACCAATAAAGTCAATGATAGG	80 a.u.
TATAGTCAGCCTCAACATGTGGCTATGATGACCAGC	87.6 a.u.

Series 2
Target: Histone acetyltransferase KAT6A, winged helix 1, GST fusion (KAT6A, Homo sapiens, UniProt Q92794, residues 1-85)
Method: protein binding microarray
Molecule type: double-stranded DNA, one strand shown
Sample: in vitro
Tested at: not given
Notes: 8-mer, flanks averaged, mean of 2 arrays, mostly near background
Reference: not given
Reading: higher = stronger binding
Construct (chain): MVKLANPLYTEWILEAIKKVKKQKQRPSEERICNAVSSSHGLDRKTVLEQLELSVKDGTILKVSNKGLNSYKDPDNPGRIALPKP
Strand	E-score
CAGTGTAC	-0.0204
ACTACGGA	0.22
CGAGAGAA	-0.123
CACCGTGC	0.0725
ACTACGAA	-0.259
GATCTTAA	-0.00556
GCGCGCAC	0.461
CGTCACTA	-0.0367

Series 3
Target: Replicase polyprotein 1ab, main protease (rep, Severe acute respiratory syndrome coronavirus 2, UniProt P0DTD1)
Observed: enzyme activity
Mode: inhibitor
Tested at: 20 µM
Notes: hit confirmation
SMILES	inhibition [%]
CC(C)(C)OC(=O)NCCc1nnc(S(=O)(=O)Cc2ccc(Cl)cc2Cl)o1	102
CCOC(=O)/C=C(C)/C=C/C=C(C)/C=C/c1c(C)cc(OC)c(C)c1C	16
CCOC(=O)Cc1ccc(-c2ccccc2)cc1	99.8
S=c1nn[nH]n1-c1ccccc1	110

Series 4
Target: Replicase polyprotein 1ab, polymerase (rep, Severe acute respiratory syndrome coronavirus 2, UniProt P0DTD1)
Observed: enzyme activity
Mode: inhibitor
Tested at: 20 µM
Structure (SMILES)	inhibition [%]
CC1(C)C(/C=C/C=C/C=C/C=C2\N(CCCCS(=O)(=O)O)c3ccc4ccccc4c3C2(C)C)=[N+](CCCCS(=O)(=O)[O-])c2ccc3ccccc3c21	4.44
NC(=O)NCCN1CCN(c2cccc(C(F)(F)F)c2)CC1	-0.21
O=c1cc(N2CCN(c3cccc(C(F)(F)F)c3)CC2)[nH]c(=O)n1C1CCCCC1	-4.27
O[C@H](CNC[C@@H](O)[C@H]1CCc2cc(F)ccc2O1)[C@@H]1CCc2cc(F)ccc2O1	-9.83
COC1=C[C@@H]2[C@@H]3Cc4ccc(OC)c(O)c4[C@]2(CCN3C)CC1=O	-3.11
C[C@]12CC[C@H]3[C@@H](CCC4=CC(=O)CC[C@@]43C)[C@@H]1CC[C@@H]2O	0.69
O=C(O)C1=CO[C@@H](O[C@@H]2O[C@H](CO)[C@@H](O)[C@H](O)[C@H]2O)[C@@H]2C(CO)=CC[C@H]12	-1.9
CCc1cc(C(N)=S)ccn1	7.42
COc1cccc2c1c(O)c(C(=O)N(C)c1ccc(C(F)(F)F)cc1)c(=O)n2C	-5.65
CN(C)C[C@H](O)Cn1c2ccc(Br)cc2c2cc(Br)ccc21 (racemic)	3.09
C[C@H]1O[C@@H](O[C@H]2CC[C@@]3(C)[C@H](CC[C@@H]4[C@@H]3C[C@@H](O)[C@]3(C)[C@@H](C5=CC(=O)OC5)CC[C@]43O)C2)C[C@H](O)[C@@H]1O[C@H]1C[C@H](O)[C@H](O[C@H]2C[C@H](O)[C@H](O[C@@H]3O[C@H](CO)[C@@H](O)[C@H](O)[C@H]3O)[C@@H](C)O2)[C@@H](C)O1	-13.3
CC(C)(C)NCC(O)c1ccccc1Cl (centres unmarked)	-2.12
O=c1c2ccccc2oc2ccccc12	-10.7
Oc1ccc2c3c1O[C@H]1c4[nH]c5ccccc5c4C[C@@]4(O)[C@@H](C2)N(CC2CC2)CC[C@]314	5.84
C[C@H](NC(=O)CNC(=O)c1cccc(Cl)c1)c1ccccc1	3.04
Cc1cc(OI)c(C(C)C)cc1-c1cc(C(C)C)c(OI)cc1C	-1.68
Cc1ccccc1C(=O)c1ccc(Nc2ccc(Br)cc2N)cc1Cl	2.96
C[C@]12CC[C@H](O)C[C@H]1CC[C@@H]1[C@@H]2C[C@@H](O)[C@]2(C)[C@@H](C3=CC(=O)OC3)CC[C@]12O	-0.92
O=C(O)Cc1ccc(-c2ccccc2)cc1	-1.74
Cc1ccc(-c2cc(C(F)(F)F)nn2-c2ccc(S(N)(=O)=O)cc2)cc1	-3.54
COCCOc1ccc(N2CCN(CCn3ncc4c3nc(N)n3nc(-c5ccco5)nc43)CC2)cc1	-1.65
CN(C(=O)c1ccc(F)cc1C(F)(F)F)C1CCN(c2nnc(-c3ccnn3C)c3ccccc23)CC1	4.01
C(#CCN1CCCC1)CN1CCCC1	0.12
CCOC(=O)c1c2c3c(cccc3[nH]c1=O)C(=O)c1ccccc1-2	-0.11
CC(Oc1ccc(O)cc1)(P(=O)(O)O)P(=O)(O)O	-1.43

Series 5
Cell line: HEK-293T/ACE2
Tested at: concentration not given
Time: 16 (unit not given)
Reference: vehicle
SMILES	viability
COc1ccc(-n2nc(C(N)=O)c3c2C(=O)N(c2ccc(N4CCCCC4=O)cc2)CC3)cc1	98.6%
CCOC(=O)C1=C(C)NC(C)=C(C(=O)OC)C1c1cccc(Cl)c1Cl (centres unmarked)	96.6%
CCC(=O)O[C@]1(C(=O)SCF)[C@H](C)C[C@H]2[C@@H]3C[C@H](F)C4=CC(=O)C=C[C@]4(C)[C@@]3(F)[C@@H](O)C[C@@]21C	106%
Nc1ncn([C@H]2C[C@H](O)[C@@H](CO)O2)c(=O)n1	97.7%
CC1(C)O[C@@H]2C[C@H]3[C@@H]4CCC5=CC(=O)CC[C@]5(C)[C@@]4(F)[C@@H](O)C[C@]3(C)[C@]2(C(=O)CCl)O1	94.8%

For quick reference, copied from above (series 4):
Structure (SMILES)	inhibition [%]
COc1cccc2c1c(O)c(C(=O)N(C)c1ccc(C(F)(F)F)cc1)c(=O)n2C	-5.65
CN(C)C[C@H](O)Cn1c2ccc(Br)cc2c2cc(Br)ccc21 (racemic)	3.09
C[C@H]1O[C@@H](O[C@H]2CC[C@@]3(C)[C@H](CC[C@@H]4[C@@H]3C[C@@H](O)[C@]3(C)[C@@H](C5=CC(=O)OC5)CC[C@]43O)C2)C[C@H](O)[C@@H]1O[C@H]1C[C@H](O)[C@H](O[C@H]2C[C@H](O)[C@H](O[C@@H]3O[C@H](CO)[C@@H](O)[C@H](O)[C@H]3O)[C@@H](C)O2)[C@@H](C)O1	-13.3
CC(C)(C)NCC(O)c1ccccc1Cl (centres unmarked)	-2.12
